{"data": "Measurements gathered from unrelated publications", "note": "A part holds a random share of what one study measured. Positions count from the first letter of the parent shown."}
{"data": "Series 1", "target": "Sal-like protein 4, full length isoform B (SALL4, Homo sapiens, UniProt Q9UJQ4-2, residues 1-616)", "method": "universal PBM", "form": "double-stranded DNA, one strand shown", "matrix": "in vitro", "tested at": "not given", "notes": "8-mer, flanks averaged, mean of replicates", "reading": "higher = stronger binding"}
{"Oligonucleotide": "ATGACGTG", "E-score": -0.0332}
{"Oligonucleotide": "TCAAAACA", "E-score": 0.16}
{"Oligonucleotide": "ATGTAGGA", "E-score": 0.0763}
{"Oligonucleotide": "GCTCACAA", "E-score": -0.0505}
{"Oligonucleotide": "CAACTCTG", "E-score": -0.179}
{"Oligonucleotide": "ATAGCTCG", "E-score": -0.0743}
{"Oligonucleotide": "CAGCCACA", "E-score": -0.0578}
{"Oligonucleotide": "TAGTGAGA", "E-score": 0.0392}
{"data": "Series 2", "target": "HLA class I histocompatibility antigen, A alpha chain, allele A*25:01 (Homo sapiens, UniProt P04439)", "effect on": "peptide-MHC binding", "form": "peptide", "tested at": "concentration not given"}
{"Molecule": "MHCDFAFWV", "binding": "inactive"}
{"Molecule": "SGLPGIFIV", "binding": "inactive"}
{"Molecule": "GAWCYDYTV", "binding": "inactive"}
{"Molecule": "MRNTIMASK", "binding": "inactive"}
{"Molecule": "KTVRYWHRF", "binding": "inactive"}
{"Molecule": "EYAPFARLL", "binding": "inactive"}
{"Molecule": "LKEKSSLRY", "binding": "inactive"}
{"data": "Series 3", "target": "CCND3, cyclin fold, Cln2 fusion (human)", "method": "yeast growth competition, sequencing", "matrix": "yeast", "notes": "weak parent motif", "reference": "not given", "reading": "higher = stronger binding", "starting sequence": "viral docking peptide; KGVKRKLFAEDSS"}
{"Substitution": "S12N", "normalised enrichment score": 0.122}
{"Substitution": "S12T", "normalised enrichment score": -0.0392}
{"Substitution": "K4I", "normalised enrichment score": 0.429}
{"Substitution": "F8I", "normalised enrichment score": 0.303}
{"Substitution": "E10H", "normalised enrichment score": 0.0969}
{"Substitution": "G2H", "normalised enrichment score": 0.357}
{"Substitution": "V3Q", "normalised enrichment score": -0.0839}
{"Substitution": "R5V", "normalised enrichment score": 0.413}
{"Substitution": "G2M", "normalised enrichment score": 0.141}
{"Substitution": "R5S", "normalised enrichment score": -0.273}
{"Substitution": "S12H", "normalised enrichment score": -0.33}
{"Substitution": "F8Y", "normalised enrichment score": 0.17}
{"Substitution": "L7G", "normalised enrichment score": 0.274}
{"Substitution": "F8C", "normalised enrichment score": 0.28}
{"data": "Series 4", "target": "UBE2D4 UBC core domain (UniProt Q9Y2X8)", "method": "yeast two-hybrid", "matrix": "yeast", "notes": "mostly zero background", "reference": "not given", "reading": "higher = stronger interaction", "B1": "TRIM60 RING domain (UniProt Q495X7); chain ALVNLQEESSCPICLEYLKDPVTINCGHNFCRSCLSVSWKDLDDTFPCPVCRFCFPYKSFRR", "B2": "RNF183 RING domain (UniProt Q96D59); chain EQQGRELEAECPVCWNPFNNTFHTPKMLDCCHSFCVECLAHLSLVTPARRRLLCPLCRQPTVLASGQP", "B3": "RNF122 RING domain (UniProt Q9H9V4); chain AKKLQLYGQTCAVCLEDFKGKDELGVLPCQHAFHRKCLVKWLEVRCVCPMCNKPIASPSEAT", "B4": "TRIM26 RING domain (UniProt Q12899); chain PLRSLEEEVTCSICLDYLRDPVTIDCGHVFCRSCTTDVRPISGSRPVCPLCKKPFKKENIRP", "Construct (chain)": "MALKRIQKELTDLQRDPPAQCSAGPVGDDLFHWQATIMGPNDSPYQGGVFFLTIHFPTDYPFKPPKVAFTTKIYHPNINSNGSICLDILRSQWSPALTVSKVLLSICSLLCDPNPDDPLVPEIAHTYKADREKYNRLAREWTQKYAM"}
{"Molecule": "B1 (TRIM60 RING domain)", "lacZ reporter activity": 0}
{"Molecule": "B2 (RNF183 RING domain)", "lacZ reporter activity": 0}
{"Molecule": "RYRQMEERITCPICIDSHIRLVFQCGHGACAPCGSALSACPICRQPIRDRIQIF (MIB2 RING domain (UniProt Q96AX9))", "lacZ reporter activity": 0}
{"Molecule": "B3 (RNF122 RING domain)", "lacZ reporter activity": 0}
{"Molecule": "B4 (TRIM26 RING domain)", "lacZ reporter activity": 0}
